Assay results gathered from unrelated publications.
Lines come from different studies, so protocols differ. ± marks the error that the study gave.

Compound	test	test system	setting	scale	endpoint	value
N=C(N)NCCC[C@@H]1NC(=O)[C@H](CCCCNC(=O)CNC(=O)CNC(=O)CNC(=O)CC[C@H](NC(=O)CNC(=O)CNC(=O)CNC(=O)CC[C@H](NC(=O)CN2CCN(CC(=O)O)CCN(CC(=O)O)CCN(CC(=O)O)CC2)C(=O)NCC(=O)NCC(=O)NCC(=O)N[C@@H](CCC(=O)NCC(=O)NCC(=O)NCC(=O)NCCCC[C@@H]2NC(=O)[C@@H](Cc3ccccc3)NC(=O)[C@H](CC(=O)O)NC(=O)CNC(=O)[C@H](CCCNC(=N)N)NC2=O)C(=O)NCC(=O)NCC(=O)NCC(=O)NCCCC[C@@H]2NC(=O)[C@@H](Cc3ccccc3)NC(=O)[C@H](CC(=O)O)NC(=O)CNC(=O)[C@H](CCCNC(=N)N)NC2=O)C(=O)NCC(=O)NCC(=O)NCC(=O)NCCCC[C@@H]2NC(=O)[C@@H](Cc3ccccc3)NC(=O)[C@H](CC(=O)O)NC(=O)CNC(=O)[C@H](CCCNC(=N)N)NC2=O)NC(=O)[C@@H](Cc2ccccc2)NC(=O)[C@H](CC(=O)O)NC(=O)CNC1=O [indium-111 labelled]		female athymic nu/nu mice, heart	intravenous, 4 h		tissue uptake	1.03 ± 0.23 %ID/g
CCCC[C@H](NC(=O)[C@H](CC(N)=O)NC(=O)[C@H](CCCNC(=N)N)NC(=O)[C@@H](NC(=O)CNC(=O)[C@H](C)NC(=O)[C@H](CCCCNC(=O)CCC(=O)O[C@@H](C(=O)O[C@H]1C[C@@]2(O)[C@@H](OC(=O)c3ccccc3)[C@@H]3[C@]4(OC(C)=O)CO[C@@H]4C[C@H](O)[C@@]3(C)C(=O)[C@H](O)C(=C1C)C2(C)C)[C@@H](NC(=O)OC(C)(C)C)c1ccccc1)NC(=O)[C@H](C)NC(=O)[C@H](CCCNC(=N)N)NC(=O)[C@@H](NC(=O)CNC(C)=O)C(C)C)C(C)C)C(=O)N[C@@H](Cc1ccccc1)C(=O)N[C@@H](CCCCNC(=O)CCC(=O)O[C@@H](C(=O)O[C@H]1C[C@@]2(O)[C@@H](OC(=O)c3ccccc3)[C@@H]3[C@]4(OC(C)=O)CO[C@@H]4C[C@H](O)[C@@]3(C)C(=O)[C@H](O)C(=C1C)C2(C)C)[C@@H](NC(=O)OC(C)(C)C)c1ccccc1)C(=O)N[C@@H](CO)C(=O)N[C@@H](CCC(=O)O)C(=O)N[C@@H](CO)C(=O)N[C@@H](Cc1ccc(O)cc1)C(=O)O		CD-1 mouse, plasma	intravenous, 50 mg/kg, single dose		half-life	1.44 h
N=C(N)NCCC[C@@H]1NC(=O)[C@H](CCCCNC(=O)CNC(=O)CNC(=O)CNC(=O)CC[C@H](NC(=O)CNC(=O)CNC(=O)CNC(=O)CN2CCN(CC(=O)O)CCN(CC(=O)O)CCN(CC(=O)O)CC2)C(=O)NCC(=O)NCC(=O)NCC(=O)NCCCC[C@@H]2NC(=O)[C@@H](Cc3ccccc3)NC(=O)[C@H](CC(=O)O)NC(=O)CNC(=O)[C@H](CCCNC(=N)N)NC2=O)NC(=O)[C@@H](Cc2ccccc2)NC(=O)[C@H](CC(=O)O)NC(=O)CNC1=O [indium-111 labelled]		female athymic nu/nu mice, brain	intravenous, 24 h		tissue uptake	0.05 ± 0.01 %ID/g
O=C(O)CC[C@H](NC(=O)N[C@@H](CCCCNC(=O)CCCCC[C@H](NC(=O)CCS[C@@H]1O[C@H](CO)[C@H](O)[C@H](O)[C@H]1O)C(=O)NCCCC[C@@H](NC(=O)[C@@H](Cc1ccccc1)NC(=O)[C@@H](Cc1ccc(O)c(I)c1)NC(=O)CCC(C(=O)O)N1CCN(CC(=O)O)CCN(CC(=O)O)CCN(CC(=O)O)CC1)C(=O)O)C(=O)O)C(=O)O (stereo partly shown) [gallium-68 labelled]		CB-17 SCID mice	1 h post injection, biodistribution		tumour uptake	3.86 ± 1.32 %ID/g
CSCC[C@H](NC(=O)[C@H](CC(C)C)NC(=O)[C@H](Cc1c[nH]cn1)NC(=O)CNC(=O)[C@@H](NC(=O)[C@H](C)NC(=O)[C@H](Cc1c[nH]c2ccccc12)NC(=O)[C@H](CCC(N)=O)NC(=O)CNC(=O)CNC(=O)CNC(=O)CCCCCN1C(=CC=C2CCCC(C=CC3=[N+](CCCCS(=O)(=O)[O-])c4ccc(S(=O)(=O)O)cc4C3(C)C)=C2Oc2ccc(S(=O)(=O)O)cc2)C(C)(C)c2cc(S(=O)(=O)O)ccc21)C(C)C)C(N)=O		female BALB/c mice	intravenous		half-life	1.7 h
CC(C)C[C@H](NC(=O)C[C@H](O)[C@H](CC(C)C)NC(=O)[C@H](Cc1c[nH]cn1)NC(=O)CNC(=O)[C@@H](NC(=O)[C@H](C)NC(=O)[C@H](Cc1c[nH]c2ccccc12)NC(=O)[C@H](CCC(N)=O)NC(=O)[C@@H](Cc1ccccc1)NC(=O)CCOCCOCCOCCNC(=O)CN1CCN(CC(=O)O)CCN(CC(=O)O)CC1)C(C)C)C(N)=O [gallium-68 labelled]	microPET imaging	nude mouse PC-3 xenograft, PC-3 tumour	intravenous, 3.7 MBq, 15 min		mean tumour uptake	2.99 ± 0.44 %ID/g
N=C(N)NCCC[C@@H]1NC(=O)[C@H](CCCCNC(=S)Nc2ccc(CC3CN(CC(=O)O)CCN(CC(=O)O)CCN(CC(=O)O)CCN3CC(=O)O)cc2)NC(=O)[C@@H](Cc2ccc(O)cc2)NC(=O)[C@H](CC(=O)O)NC(=O)CNC1=O (stereo partly shown) [actinium-225 labelled]		U-87 MG tumour-bearing mice	24 h		tumour to blood ratio	42
N=C(N)NCCC[C@@H]1NC(=O)[C@H](CCCCNC(=O)CC[C@H](NC(=O)CC[C@H](NC(=O)CN2CCN(CC(=O)O)CCN(CC(=O)O)CCN(CC(=O)O)CC2)C(=O)N[C@@H](CCC(=O)NCCCC[C@@H]2NC(=O)[C@@H](Cc3ccccc3)NC(=O)[C@H](CC(=O)O)NC(=O)CNC(=O)[C@H](CCCNC(=N)N)NC2=O)C(=O)NCCCC[C@@H]2NC(=O)[C@@H](Cc3ccccc3)NC(=O)[C@H](CC(=O)O)NC(=O)CNC(=O)[C@H](CCCNC(=N)N)NC2=O)C(=O)NCCCC[C@@H]2NC(=O)[C@@H](Cc3ccccc3)NC(=O)[C@H](CC(=O)O)NC(=O)CNC(=O)[C@H](CCCNC(=N)N)NC2=O)NC(=O)[C@@H](Cc2ccccc2)NC(=O)[C@H](CC(=O)O)NC(=O)CNC1=O [indium-111 labelled]		female athymic nu/nu mice, U87MG tumour	intravenous, 111 kBq, 0.5 h		tissue uptake	8.97 ± 0.52 %ID/g
CC(C)[C@H](NC(=O)[C@@H](NC(=O)COCCOCCNC(=O)COCCOCCNC(=O)CN1CCN(CC(=O)O)CCN(CC(=O)O)CCN(CC(=O)O)CC1)[C@@H](C)O)C(=O)N[C@@H](CCCNC(=N)N)C(=O)N[C@H](C(=O)N[C@@H](CO)C(=O)N[C@@H](C)C(=O)N[C@@H](CC(=O)O)C(=O)O)[C@@H](C)O [copper-64 labelled]	PET	male nude mice, LNCaP xenograft	iv, 22 h		tumour tracer uptake	3210 ± 1510 Bq/mL
CSCC[C@H](NC(=O)[C@H](CC(C)C)NC(=O)[C@H](Cc1c[nH]cn1)NC(=O)CNC(=O)[C@@H](NC(=O)[C@H](C)NC(=O)[C@H](Cc1c[nH]c2ccccc12)NC(=O)[C@H](CCC(N)=O)NC(=O)CCOCCOCCOCCOCCNC(=O)CN1CCN(CC(=O)O)CCN(CC(=O)O)CCN(CC(=O)O)CC1)C(C)C)C(N)=O [indium-111 labelled]		Swiss nu/nu mice, PC-3 xenograft	i.v., 10 pmol, 1 to 4 h	relative to: earlier time point	tumour to pancreas ratio change	1.2 fold

Repeated from above:
Compound	test	test system	setting	scale	endpoint	value
N=C(N)NCCC[C@@H]1NC(=O)[C@H](CCCCNC(=O)CNC(=O)CNC(=O)CNC(=O)CC[C@H](NC(=O)CNC(=O)CNC(=O)CNC(=O)CC[C@H](NC(=O)CN2CCN(CC(=O)O)CCN(CC(=O)O)CCN(CC(=O)O)CC2)C(=O)NCC(=O)NCC(=O)NCC(=O)N[C@@H](CCC(=O)NCC(=O)NCC(=O)NCC(=O)NCCCC[C@@H]2NC(=O)[C@@H](Cc3ccccc3)NC(=O)[C@H](CC(=O)O)NC(=O)CNC(=O)[C@H](CCCNC(=N)N)NC2=O)C(=O)NCC(=O)NCC(=O)NCC(=O)NCCCC[C@@H]2NC(=O)[C@@H](Cc3ccccc3)NC(=O)[C@H](CC(=O)O)NC(=O)CNC(=O)[C@H](CCCNC(=N)N)NC2=O)C(=O)NCC(=O)NCC(=O)NCC(=O)NCCCC[C@@H]2NC(=O)[C@@H](Cc3ccccc3)NC(=O)[C@H](CC(=O)O)NC(=O)CNC(=O)[C@H](CCCNC(=N)N)NC2=O)NC(=O)[C@@H](Cc2ccccc2)NC(=O)[C@H](CC(=O)O)NC(=O)CNC1=O [indium-111 labelled]		female athymic nu/nu mice, heart	intravenous, 4 h		tissue uptake	1.03 ± 0.23 %ID/g
